Measured values gathered from unrelated publications.
Protocols differ between the studies behind these lines. ± marks the error that the study gave.

With `CC(C)n1c(Nc2cccnc2)nc2cnc(Nc3ccc(N4CCN(C)CC4)cc3)nc21` the Cmax was 64 ng/mL (LC-MS/MS; human, male, plasma; oral, 100 mg, day 11, with: itraconazole 200 mg).
The Cmax of `CC#CC(=O)N1CCC[C@H]1c1nc(-c2ccc(C(=O)Nc3ccccn3)cc2)c2c(N)nccn12` is reported as 142 ng/mL (human, plasma; oral, 100 mg once daily dosing, with: rifampicin 600 mg).
`Cc1cc(C)c(CNC(=O)c2cc(Cl)c3c(c2C)O[C@@](C)([C@H]2CC[C@H](N(C)C)CC2)O3)c(=O)[nH]1` has a Cmax of 1940 ng/mL (LC-MS/MS; human male, plasma; oral, 200 mg, single dose, [14C]-labelled).
`C[C@H](CCC(=O)NCCS(=O)(=O)O)[C@H]1CC[C@H]2[C@@H]3CC[C@@H]4C[C@H](OS(=O)(=O)O)CC[C@]4(C)[C@H]3CC[C@]12C` has a Cmax of 216 ± 45 nM (human, plasma; concentration not given, endogenous control diurnal).
With `CCc1nc(C(N)=O)c(Nc2ccc(N3CCC(N4CCN(C)CC4)CC3)c(OC)c2)nc1NC1CCOCC1` the Cmax was 1530 ng/mL (human patients; oral, 450 mg once daily, cycle 1 day 15).
For `N[C@]1(C(=O)O)[C@H]2[C@@H](C[C@@H]1F)[C@@H]2C(=O)O`, the Cmax was 62.3 ng/mL (human, both sexes, plasma; oral, 10 mg, fasted, single dose).
With `C[C@H](CCC(=O)NCC(=O)O)[C@H]1CC[C@H]2[C@@H]3CC[C@@H]4C[C@H](OS(=O)(=O)O)CC[C@]4(C)[C@H]3CC[C@]12C` the Cmax was 1420 ± 310 nM (human, plasma; concentration not given, endogenous baseline diurnal).
With `FC(F)(F)c1ccc(CNc2ccc(Cc3c[nH]c4ncc(Cl)cc34)cn2)cn1` the Cmax was 6310 ng/mL (human, plasma; oral, dose not given, with: itraconazole).
With `COc1ccc2nc([S@@+]([O-])Cc3ncc(CO)c(OC)c3C)[nH]c2c1` the Cmax was 8.3 nM (human, dried plasma spots; 5 mg racemic omeprazole).
For `C[C@@H](O[C@H]1OCCN(Cc2n[nH]c(=O)[nH]2)[C@H]1c1ccc(F)cc1)c1cc(C(F)(F)F)cc(C(F)(F)F)c1`, the Cmax was 7000 nM (human, plasma; oral, 240 mg single dose, converted from mass concentration).
The Cmax of `Cc1cc(C)c(CNC(=O)c2cc(Cl)c3c(c2C)O[C@@](C)([C@H]2CC[C@H](N(C)C)CC2)O3)c(=O)[nH]1` is reported as 158 ng/mL (mean; healthy male humans, plasma; oral, 25 mg, day 12, with: fluconazole).
`COc1cc2ncnc(Nc3ccc(F)c(Cl)c3)c2cc1NC(=O)/C=C/CN1CCCCC1` has a Cmax of 13.1 ng/mL (measured: total drug; human, mild hepatic impairment, plasma; single dose, Child-Pugh classification).
For `COc1cc([C@H]2Oc3cc([C@H]4Oc5cc(O)cc(O)c5C(=O)[C@@H]4O)ccc3O[C@@H]2CO)ccc1O`, the Cmax was 1720 nM (OATP1B1/1B3 humanized mice, plasma; oral gavage, 500 mg/kg silymarin).
The Cmax of `Cn1cncc1[C@@](N)(c1ccc(Cl)cc1)c1ccc2c(c1)c(-c1cccc(Cl)c1)cc(=O)n2C` is reported as 251 ng/mL (healthy human subjects, plasma; oral, 100 mg, fed (high-fat meal)).
The Cmax of `Nc1ccn([C@@H]2O[C@H](CO)[C@@H](O)C2(F)F)c(=O)n1` is reported as 15000 ng/mL (HPLC-UV; human, plasma; intravenous, 800 mg/m^2, median, before paricalcitol).

Some of these lines once more:
`Cc1cc(C)c(CNC(=O)c2cc(Cl)c3c(c2C)O[C@@](C)([C@H]2CC[C@H](N(C)C)CC2)O3)c(=O)[nH]1` has a Cmax of 1940 ng/mL (LC-MS/MS; human male, plasma; oral, 200 mg, single dose, [14C]-labelled).
`C[C@H](CCC(=O)NCCS(=O)(=O)O)[C@H]1CC[C@H]2[C@@H]3CC[C@@H]4C[C@H](OS(=O)(=O)O)CC[C@]4(C)[C@H]3CC[C@]12C` has a Cmax of 216 ± 45 nM (human, plasma; concentration not given, endogenous control diurnal).
